Published values collected from several papers.
Every numbered part comes from another study and shows a few of its results, in no order.
Chain of UniProt Q13882 (whole entry, looked up): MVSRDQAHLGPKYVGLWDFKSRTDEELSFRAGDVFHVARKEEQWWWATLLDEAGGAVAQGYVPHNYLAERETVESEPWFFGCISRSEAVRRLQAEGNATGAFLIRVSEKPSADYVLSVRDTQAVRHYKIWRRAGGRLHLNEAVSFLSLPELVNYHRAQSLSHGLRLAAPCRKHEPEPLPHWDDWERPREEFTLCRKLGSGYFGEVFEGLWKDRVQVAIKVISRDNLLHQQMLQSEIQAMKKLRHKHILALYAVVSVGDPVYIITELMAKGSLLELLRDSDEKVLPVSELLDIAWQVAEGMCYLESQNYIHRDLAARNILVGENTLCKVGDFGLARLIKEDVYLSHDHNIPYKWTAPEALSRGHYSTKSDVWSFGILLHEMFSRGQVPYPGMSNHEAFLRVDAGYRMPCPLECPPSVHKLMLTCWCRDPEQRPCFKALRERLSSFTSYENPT
Chain of UniProt P42680 (whole entry, looked up): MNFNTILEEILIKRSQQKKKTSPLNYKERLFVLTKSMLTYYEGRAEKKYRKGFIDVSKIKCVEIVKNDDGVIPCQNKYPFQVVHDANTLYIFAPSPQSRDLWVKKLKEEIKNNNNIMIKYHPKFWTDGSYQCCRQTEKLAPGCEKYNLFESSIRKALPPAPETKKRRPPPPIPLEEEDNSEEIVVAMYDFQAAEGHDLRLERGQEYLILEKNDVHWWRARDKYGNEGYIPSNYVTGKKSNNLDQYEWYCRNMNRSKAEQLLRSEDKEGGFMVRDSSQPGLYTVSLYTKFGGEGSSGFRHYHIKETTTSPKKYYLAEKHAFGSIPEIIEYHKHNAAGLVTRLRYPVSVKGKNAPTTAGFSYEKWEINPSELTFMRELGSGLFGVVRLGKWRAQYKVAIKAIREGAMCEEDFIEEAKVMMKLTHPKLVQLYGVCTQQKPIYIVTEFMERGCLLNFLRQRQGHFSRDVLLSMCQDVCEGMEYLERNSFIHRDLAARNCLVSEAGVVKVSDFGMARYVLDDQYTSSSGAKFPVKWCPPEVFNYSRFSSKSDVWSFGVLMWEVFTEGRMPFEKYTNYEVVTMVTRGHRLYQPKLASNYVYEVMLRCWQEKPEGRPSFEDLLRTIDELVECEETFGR
Chain of UniProt Q5VT25 (whole entry, looked up): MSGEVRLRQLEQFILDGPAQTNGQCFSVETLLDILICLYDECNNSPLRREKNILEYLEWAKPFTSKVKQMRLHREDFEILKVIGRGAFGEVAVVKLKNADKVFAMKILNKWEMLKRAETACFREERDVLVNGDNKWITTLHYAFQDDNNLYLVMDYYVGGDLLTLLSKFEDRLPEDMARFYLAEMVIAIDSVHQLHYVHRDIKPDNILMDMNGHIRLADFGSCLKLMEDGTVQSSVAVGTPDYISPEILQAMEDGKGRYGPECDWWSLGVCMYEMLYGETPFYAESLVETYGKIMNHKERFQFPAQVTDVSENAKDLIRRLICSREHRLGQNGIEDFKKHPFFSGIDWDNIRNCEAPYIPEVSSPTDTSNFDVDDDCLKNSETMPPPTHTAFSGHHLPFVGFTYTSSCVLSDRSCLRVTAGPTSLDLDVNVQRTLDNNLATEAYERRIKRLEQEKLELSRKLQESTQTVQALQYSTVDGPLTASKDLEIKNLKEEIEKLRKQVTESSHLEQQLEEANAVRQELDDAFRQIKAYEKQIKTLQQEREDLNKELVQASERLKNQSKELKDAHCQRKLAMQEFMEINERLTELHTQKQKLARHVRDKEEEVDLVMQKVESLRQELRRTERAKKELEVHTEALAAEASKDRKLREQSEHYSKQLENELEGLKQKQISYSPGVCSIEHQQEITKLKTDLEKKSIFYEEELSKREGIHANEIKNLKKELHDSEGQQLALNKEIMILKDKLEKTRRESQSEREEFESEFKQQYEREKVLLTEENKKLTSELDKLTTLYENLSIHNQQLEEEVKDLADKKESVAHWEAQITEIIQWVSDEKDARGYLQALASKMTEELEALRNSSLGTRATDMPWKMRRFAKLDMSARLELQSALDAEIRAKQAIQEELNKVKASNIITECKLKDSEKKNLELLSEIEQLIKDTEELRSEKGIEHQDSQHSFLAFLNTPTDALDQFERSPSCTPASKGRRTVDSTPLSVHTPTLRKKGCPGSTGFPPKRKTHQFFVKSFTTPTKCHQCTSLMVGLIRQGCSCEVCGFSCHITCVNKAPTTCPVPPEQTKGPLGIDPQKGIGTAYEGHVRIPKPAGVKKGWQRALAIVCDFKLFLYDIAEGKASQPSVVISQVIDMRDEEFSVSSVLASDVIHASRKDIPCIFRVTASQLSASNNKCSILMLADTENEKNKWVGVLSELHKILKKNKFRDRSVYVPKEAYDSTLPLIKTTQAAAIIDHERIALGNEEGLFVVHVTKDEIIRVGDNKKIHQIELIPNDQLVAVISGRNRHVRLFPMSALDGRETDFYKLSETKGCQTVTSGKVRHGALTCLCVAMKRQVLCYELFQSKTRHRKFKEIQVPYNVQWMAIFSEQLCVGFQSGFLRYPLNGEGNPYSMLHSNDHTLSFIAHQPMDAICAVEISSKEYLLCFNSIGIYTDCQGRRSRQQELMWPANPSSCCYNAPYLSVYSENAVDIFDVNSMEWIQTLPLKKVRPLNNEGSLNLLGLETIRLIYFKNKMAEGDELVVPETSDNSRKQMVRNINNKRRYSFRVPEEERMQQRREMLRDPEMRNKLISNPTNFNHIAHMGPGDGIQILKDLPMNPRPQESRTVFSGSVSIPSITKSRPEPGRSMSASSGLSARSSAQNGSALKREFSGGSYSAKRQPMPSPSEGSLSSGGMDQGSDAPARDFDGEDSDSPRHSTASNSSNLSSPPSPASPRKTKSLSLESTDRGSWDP
Chain of UniProt P07949 (whole entry, unmodified, looked up): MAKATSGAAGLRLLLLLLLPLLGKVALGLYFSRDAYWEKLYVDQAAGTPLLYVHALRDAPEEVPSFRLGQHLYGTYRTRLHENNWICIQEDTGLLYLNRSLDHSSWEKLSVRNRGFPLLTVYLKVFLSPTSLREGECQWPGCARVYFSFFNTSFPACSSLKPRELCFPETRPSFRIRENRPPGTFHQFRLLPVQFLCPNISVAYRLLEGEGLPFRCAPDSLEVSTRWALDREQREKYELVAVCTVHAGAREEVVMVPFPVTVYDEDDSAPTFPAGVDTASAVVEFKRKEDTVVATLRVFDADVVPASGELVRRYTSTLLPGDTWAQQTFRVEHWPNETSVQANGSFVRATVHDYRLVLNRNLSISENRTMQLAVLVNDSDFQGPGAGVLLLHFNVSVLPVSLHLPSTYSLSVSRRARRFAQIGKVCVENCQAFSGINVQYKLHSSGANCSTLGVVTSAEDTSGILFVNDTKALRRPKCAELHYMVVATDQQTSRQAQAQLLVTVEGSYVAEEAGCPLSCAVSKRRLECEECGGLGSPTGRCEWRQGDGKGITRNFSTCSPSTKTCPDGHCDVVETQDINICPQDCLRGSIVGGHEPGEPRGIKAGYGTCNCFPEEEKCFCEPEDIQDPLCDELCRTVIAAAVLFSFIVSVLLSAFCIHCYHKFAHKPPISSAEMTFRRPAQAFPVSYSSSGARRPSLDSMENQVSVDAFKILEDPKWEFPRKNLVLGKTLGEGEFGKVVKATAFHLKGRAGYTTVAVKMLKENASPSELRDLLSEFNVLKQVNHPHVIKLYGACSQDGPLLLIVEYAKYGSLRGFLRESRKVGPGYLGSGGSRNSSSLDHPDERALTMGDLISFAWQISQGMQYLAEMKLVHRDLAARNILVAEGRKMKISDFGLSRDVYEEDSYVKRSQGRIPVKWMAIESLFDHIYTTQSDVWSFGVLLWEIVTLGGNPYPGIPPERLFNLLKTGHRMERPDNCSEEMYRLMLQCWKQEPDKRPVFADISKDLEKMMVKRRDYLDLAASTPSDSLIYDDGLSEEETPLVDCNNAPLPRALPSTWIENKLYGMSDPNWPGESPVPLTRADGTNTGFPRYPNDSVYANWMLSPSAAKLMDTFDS
Chain of UniProt P09769 (whole entry, looked up): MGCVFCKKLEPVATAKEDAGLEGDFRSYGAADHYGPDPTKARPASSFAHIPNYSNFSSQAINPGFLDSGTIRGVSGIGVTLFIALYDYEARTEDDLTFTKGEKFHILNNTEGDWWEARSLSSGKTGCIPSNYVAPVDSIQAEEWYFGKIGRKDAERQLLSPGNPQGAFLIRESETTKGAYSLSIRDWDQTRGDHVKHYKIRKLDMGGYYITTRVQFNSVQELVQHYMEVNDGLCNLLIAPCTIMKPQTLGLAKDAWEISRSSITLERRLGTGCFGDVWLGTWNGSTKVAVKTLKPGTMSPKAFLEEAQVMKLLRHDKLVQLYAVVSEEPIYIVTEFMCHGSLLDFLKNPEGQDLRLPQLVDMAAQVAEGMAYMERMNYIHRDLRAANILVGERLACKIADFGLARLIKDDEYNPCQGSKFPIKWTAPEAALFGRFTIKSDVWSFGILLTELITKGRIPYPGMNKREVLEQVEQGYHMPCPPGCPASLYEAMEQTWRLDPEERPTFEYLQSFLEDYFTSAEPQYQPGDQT

Set 1
Structure (SMILES): CC(=O)N[C@@H](Cc1c[nH]c2ccccc12)C(=O)N[C@@H](CCC(=O)C=[N+]=[N-])C(=O)OC(C)C
Medium: EL4 tumour
Dose: dose not given
Reference: vehicle
| assay | test system | log2 fold change |
| --- | --- | --- |
| measured: thiamin monophosphate | Mus musculus | 1.09 |
| measured: indolelactate | mouse, EL4 tumour-bearing | -1.4 |
| metabolomics, measured: guanosine 3'-monophosphate | mouse | 1.36 |
| measured: methylphosphate | mouse, EL4 tumour-bearing | 0.386 |
| measured: gamma-glutamylphenylalanine | mouse, EL4 tumour-bearing | -0.256 |
| measured: serine | mouse, EL4 tumour-bearing | 0.47 |

Set 2
Host: human
Medium: microsomes or S9
Tested at: 2 µM
Time: 0.5 h
| Structure (SMILES) | remaining compound [%] |
| --- | --- |
| c1ccc2c(c1)nc(-c1ccsc1)n2Cc1ccsc1 | 5.88 |
| CCC1c2c(OC)c3c(c(OC)c2C(c2cc(OC)c4c(c2OC)OCO4)C1C)OCO3 (stereo not drawn) | 19.6 |
| CCOC(=O)Cc1c(C)nc2cc(-c3ccc(C)cc3)nn2c1O | 49.9 |
| Cc1[nH]c2cccc3c2c1CCN1C(=O)OC2(CC(C)(C)NC(C)(C)C2)C31C (stereo not drawn) | 53.6 |
| O=C(O)c1ccc2c(c1)NC(=O)c1ccccc1S2(=O)=O | 88.5 |
| COc1cc(=O)[nH]cc1C(=O)N[C@@H]1CCO[C@H]1c1c(C)nn(C)c1C | 78.1 |
| Cc1cc(C)c(N2CC(=O)N(c3c(C)cc(C)cc3C)CC2=O)c(C)c1 | 20.1 |

Set 3
SMILES: Cc1ccc(O)cc1Nc1ccnc2cc(-c3ccccn3)ccc12
Target: Receptor-interacting serine/threonine-protein kinase 3 (RIPK3, Homo sapiens, UniProt Q9Y572)
Chain of UniProt Q9Y572 (whole entry, looked up): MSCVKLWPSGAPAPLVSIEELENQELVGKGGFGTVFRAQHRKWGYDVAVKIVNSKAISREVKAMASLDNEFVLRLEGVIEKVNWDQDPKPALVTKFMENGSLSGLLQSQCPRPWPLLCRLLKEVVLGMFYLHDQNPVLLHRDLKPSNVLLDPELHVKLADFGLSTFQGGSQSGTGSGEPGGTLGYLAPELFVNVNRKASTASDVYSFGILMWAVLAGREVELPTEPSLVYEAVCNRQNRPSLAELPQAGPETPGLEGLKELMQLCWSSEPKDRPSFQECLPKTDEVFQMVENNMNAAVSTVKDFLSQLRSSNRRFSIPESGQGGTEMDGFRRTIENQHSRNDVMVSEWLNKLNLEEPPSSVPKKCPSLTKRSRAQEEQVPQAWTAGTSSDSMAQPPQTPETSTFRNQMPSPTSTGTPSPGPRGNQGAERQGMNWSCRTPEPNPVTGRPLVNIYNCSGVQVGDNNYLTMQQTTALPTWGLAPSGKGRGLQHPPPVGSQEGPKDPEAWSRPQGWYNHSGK
Effect on: kinase activity
Action: inhibitor
Method: ADP-Glo
Time: 1 h
| setting | inhibition [%] |
| --- | --- |
| 50 nM | 91.5 |
| 200 nM | 98.2 |
| 100 nM | 91.5 |
| 3.125 nM | 42.1 |

Set 4
Organism: Sarcocystis neurona
Effect on: parasite growth
Tested at: 10 µM
Notes: secondary screen
| SMILES | inhibition [%] |
| --- | --- |
| O=C(O[C@H]1[C@H](Oc2ccccc2COC(=O)C2(O)C=CCCC2=O)O[C@H](CO)[C@@H](O)[C@@H]1O)c1ccccc1 (stereo partly drawn) | -41.7 |
| Clc1ccccc1C(c1ccccc1)(c1ccccc1)n1ccnc1 | 53 |
| CCOC(=O)c1ncn2c1CN(C)C(=O)c1cc(F)ccc1-2 | -3.6 |
| CCCN1CCCC[C@H]1C(=O)Nc1c(C)cccc1C | -49.5 |
| CC1(C)S[C@@H]2[C@H](NC(=O)[C@H](N)c3ccc(O)cc3)C(=O)N2[C@H]1C(=O)O | -27 |
| COc1cc2nc(N3CCN(C(=O)C4COc5ccccc5O4)CC3)nc(N)c2cc1OC (stereo not drawn) | 73.5 |
| CC(C)(S)[C@@H](N)C(=O)O | -17 |

Set 5
Compound: CC1=C(C#N)C(c2ccc3c(c2)c(NC(=O)c2ccccc2C)nn3C)C(C#N)=C(C)N1
Method: competition with immobilised ligand
Tested at: 1 µM
| target | assay | remaining binding [%] |
| --- | --- | --- |
| MAK (Homo sapiens, UniProt P20794) | binding | 100 |
| PRPF4B (Homo sapiens, UniProt Q13523) | cell-free assay | 77 |
| PRKACB (Homo sapiens, UniProt P22694) | cell-free assay | 100 |
| BRAF (Homo sapiens, UniProt P15056) | cell-free assay | 47 |
| STK35 (Homo sapiens, UniProt Q8TDR2) | cell-free assay | 86 |
| MAP3K5 (Homo sapiens, UniProt Q99683) | cell-free assay | 89 |
| PIK3CA (Homo sapiens, UniProt P42336, E545A) | cell-free assay | 71 |
| LRRK2 (Homo sapiens, UniProt Q5S007, G2019S) | cell-free assay | 100 |
| PLK3 (Homo sapiens, UniProt Q9H4B4) | cell-free assay | 80 |
| IGF1R (Homo sapiens, UniProt P08069) | cell-free assay | 96 |
| RET (Homo sapiens, UniProt P07949, V804M) | cell-free assay | 91 |
| PIP5K1A (Homo sapiens, UniProt Q99755) | cell-free assay | 100 |
| PKMYT1 (Homo sapiens, UniProt Q99640) | cell-free assay | 99 |
| DAPK1 (Homo sapiens, UniProt P53355) | cell-free assay | 89 |
| BMPR1A (Homo sapiens, UniProt P36894) | binding | 100 |
| TEC (Homo sapiens, UniProt P42680) | binding | 100 |
| MAP4K3 (Homo sapiens, UniProt Q8IVH8) | cell-free assay | 80 |
| RIPK2 (Homo sapiens, UniProt O43353) | cell-free assay | 100 |
| MERTK (Homo sapiens, UniProt Q12866) | cell-free assay | 100 |
| PTK6 (Homo sapiens, UniProt Q13882) | cell-free assay | 100 |
| LATS1 (Homo sapiens, UniProt O95835) | cell-free assay | 85 |
| BUB1 (Homo sapiens, UniProt O43683) | cell-free assay | 74 |
| FES (Homo sapiens, UniProt P07332) | cell-free assay | 84 |
| EPHB6 (Homo sapiens, UniProt O15197) | cell-free assay | 81 |
| TYRO3 (Homo sapiens, UniProt Q06418) | cell-free assay | 100 |

Set 6
SMILES: COc1ccc2[nH]c3c4[nH]c5ccc(OC)cc5c4c4c(c3c2c1)C(=O)NC4=O
Tested at: 1 µM
| target | assay | remaining binding [%] |
| --- | --- | --- |
| AKT3 (Homo sapiens, UniProt Q9Y243) | binding | 98 |
| JAK1 (Homo sapiens, UniProt P23458) | binding | 39 |
| CASK (Homo sapiens, UniProt O14936) | binding | 100 |
| SLK (Homo sapiens, UniProt Q9H2G2) | binding, competition with immobilised ligand | 96 |
| FGR (Homo sapiens, UniProt P09769) | cell-free assay, competition with immobilised ligand | 68 |
| CDC42BPA (Homo sapiens, UniProt Q5VT25) | binding, competition with immobilised ligand | 76 |
| ROS1 (Homo sapiens, UniProt P08922) | binding | 24 |
| PTK6 (Homo sapiens, UniProt Q13882) | binding, competition with immobilised ligand | 81 |
